# Results gathered from unrelated publications.
# A part holds a random share of what one study measured.

# Study 1
# Target: RING finger protein unkempt homolog, zinc fingers 1-6, GST-SBP tag (UNK, Homo sapiens, UniProt Q9C0B0, residues 30-357)
# UniProt Q9C0B0, sequence (30-357, looked up): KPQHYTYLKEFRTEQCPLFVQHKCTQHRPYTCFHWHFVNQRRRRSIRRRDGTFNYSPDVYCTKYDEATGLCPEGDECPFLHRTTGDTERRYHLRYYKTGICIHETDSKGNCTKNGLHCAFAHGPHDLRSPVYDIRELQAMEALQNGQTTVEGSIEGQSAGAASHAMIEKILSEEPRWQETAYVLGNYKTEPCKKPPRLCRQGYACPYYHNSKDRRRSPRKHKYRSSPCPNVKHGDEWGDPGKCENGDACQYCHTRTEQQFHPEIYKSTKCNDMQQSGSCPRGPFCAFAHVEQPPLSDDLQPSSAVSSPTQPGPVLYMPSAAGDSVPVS
# Technique: RNA Bind-n-Seq
# Form: RNA
# Medium: in vitro
# Concentration: not given
# Setting: RNA with constant flanks, human-mouse chimeric sites, ends assumed
# Baseline: input RNA pool
# Direction: higher = stronger binding
Sequence,bound/input enrichment [ratio]
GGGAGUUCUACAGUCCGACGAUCCAACAGAGUCUAGGAUGGGUUCAUUACAUGAUUCAUGAGCCAGAACCGCAUAUUCUUCUCUUUAGACGACCUCUUCCAAAAGAUCAACAAAAAUGAAGUUUAUCUGGGAUCAUCUAAUCUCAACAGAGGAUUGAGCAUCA,0.158
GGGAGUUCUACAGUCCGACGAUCGAUAGGAAAAGCUUGUUGGAGACCCGCUUGCAUGUCACUGGUAGAGACCUGAGGUGUAAAAUAGCUGAAACUUUCGGAUUUCAAGAAAAUUACAUCAAGAUCGUAAUAAAUAAGAAACAGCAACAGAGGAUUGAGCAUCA,0.633
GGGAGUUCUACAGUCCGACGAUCAAAUUUCCCCUCCUGAGACCUCCUCCGAAGUUGGAGUCUCUUACAGAUGGUUCAUCUCCUGUUAGCGUUUUAGUUUGGACCACCCAGCCUUGGACAAUUCCCGCCAACCAGGCAAUUUGCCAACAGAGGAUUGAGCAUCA,0.731
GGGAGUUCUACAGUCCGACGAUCCCCUCCCCGGGCCACCCACCCCUCCCGCUCCCAGCGGGAGAUCCAGGUUUCUUCUUAUUUCAUAGCAAAUAAGAAAAAUGUUCUACGCACAUUUUGUCCUCAGUAAACGAGGGCCUCUGGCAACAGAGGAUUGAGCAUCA,0.349
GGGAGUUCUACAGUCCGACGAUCCUGAAAAACACAGAUAUCAAAGUUGUUGACUUUGGAAGUGCAACGUAUGAUGAUGAACAUCACAGUACUUUGGUGUCUACCCGGCACUACAGAGCUCCAGAGGUCAUUUUGGCUCUAGGUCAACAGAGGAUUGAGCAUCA,0.317
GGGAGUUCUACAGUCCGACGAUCUCGGAUGAGGUGCUGGGUCACUUUUCAUAUCCAGAUCCUUCCCAGUGGACAGAUGAAGAACUGGGAAUCCCUCCUGAUGACGAGGACUGACACUGUAAACUCUCUGGACGAGUAGGAGCACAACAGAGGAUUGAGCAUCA,0.586
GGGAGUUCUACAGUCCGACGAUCGCCACCAGAUCCCAGAAACAUGACCCUUGCAGCCUAUAAAGAGAAGAUGAAGGAACUCCCGCUGGUGUCCUUGUUCUGCUCCUGCUUCCUGGCCGAUCCCCUGAAUAAGUCGUCCUACAACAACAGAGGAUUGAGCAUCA,0.317
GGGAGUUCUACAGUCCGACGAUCAAAGUGAUGACUAUGUUUGUACAGCGACAGGUAUUUUCGGAGAGCAAAGAUGAGAUUGCUUUAGUCCUCUAUGGCACAGAUGGCACUGAUAAUGCCCUUGCUGGCAAGGACCAGUAUCAGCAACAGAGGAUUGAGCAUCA,0.267

# Study 2
# Target: Replicase polyprotein 1ab, nsp13 helicase (rep, Severe acute respiratory syndrome coronavirus 2, UniProt P0DTD1)
# Mode: inhibitor
# Concentration: 20 µM
SMILES,inhibition [%]
COc1ccccc1OCC(O)CN1CCN(CC(=O)Nc2c(C)cccc2C)CC1 (centres unmarked),2.99
NC(N)=NC(N)=Nc1cccc(Cl)c1,4.13
O=C1NC(=O)c2cc(Nc3ccc(F)cc3)c(Nc3ccc(F)cc3)cc21,1.38
CCN1CCN(C(=O)Cc2ccc(Nc3ncc(F)c(Nc4ccc(C(=O)Nc5ccccc5Cl)cc4)n3)cc2)CC1,2.46
OC(CN1CCC(Cc2ccc(F)cc2)CC1)c1ccc(Cl)cc1 (centres unmarked),1.18
C[C@]12C=CC(=O)C=C1CC[C@H]1[C@@H]3C[C@@H](O)[C@](O)(C(=O)CO)[C@@]3(C)C[C@H](O)[C@@]12F,4.71
C[C@]12CCC(=NOCCN)C[C@@H]1C(=O)C[C@@H]1[C@@H]2CC[C@]2(C)C(=O)CC[C@@H]12,-4.39
Cc1cccc(C(=O)NCN2CCN(c3ccccc3C#N)CC2)c1,5.34
Cc1cc(C(=O)Nc2cccc(C(=O)Nc3cccc(C(F)(F)F)c3)c2)on1,-0.04
FC(F)(F)c1ccc(CNc2ccc(Cc3c[nH]c4ncc(Cl)cc34)cn2)cn1,4.74
CC1=C(O)C(=O)[C@@H]2O[C@@H]2C1=O,9.93
O=c1ccc2ccc(OCCCCN3CCN(c4cccc5sccc45)CC3)cc2[nH]1,11.6
CCC(=O)c1ccc(O)cc1,-0.35
CN1CCCN(C(c2ccccc2)c2ccc(Cl)cc2)CC1 (centres unmarked),-2.46
COc1cc(N)c(Cl)cc1C(=O)CCC1CCN(CCNS(C)(=O)=O)CC1,-1.16
Oc1c(I)cc(I)c(O)c1I,100
CC(C(=O)O)c1ccc2c(c1)Cc1cccnc1O2 (centres unmarked),3.99
O=C(Nc1ccc(-c2ccnc(Nc3ccc(N4CCOCC4)cc3)n2)cc1)C1CCCN1 (centres unmarked),17.7
Cn1c(COc2ccc(CC3SC(=O)NC3=O)cc2)nc2ccccc2c1=O (centres unmarked),7.71
O=C(O)CNC(=O)c1ccccc1,-1.69
C=CCN1CCc2cc(O)c(O)cc2C(c2ccccc2)C1 (centres unmarked),1.36
Cc1cc(C)cc(OCC2CNC(=O)O2)c1 (centres unmarked),10.5
C[C@@]12C(=O)OC(=O)[C@]1(C)[C@H]1CC[C@@H]2O1,1.77
CCCCC(=O)OCC(=O)[C@]1(O)Cc2c(O)c3c(c(O)c2[C@@H](O[C@H]2C[C@H](NC(=O)C(F)(F)F)[C@H](O)[C@H](C)O2)C1)C(=O)c1c(OC)cccc1C3=O,-0.72
NC(=O)OCC(COC(N)=O)c1ccccc1,7

# Study 3
# Cell line: HEK-293T-ACE2
# Concentration: concentration not given
# Baseline: vehicle
Compound,cell number [%]
CC(C)(C)c1nc(-c2cccc(NS(=O)(=O)c3c(F)cccc3F)c2F)c(-c2ccnc(N)n2)s1,90.9
CNC(=C[N+](=O)[O-])NCCSCc1ccc(CN(C)C)o1,104
COC(=O)N[C@H](C(=O)N[C@@H](Cc1ccccc1)[C@@H](O)CN(Cc1ccc(-c2ccccn2)cc1)NC(=O)[C@@H](NC(=O)OC)C(C)(C)C)C(C)(C)C.O=S(=O)(O)O,96.2

# Study 4
# Target: Eukaryotic initiation factor 4A-I (EIF4A1, Homo sapiens, UniProt P60842, residues 1-406, full length assumed)
# UniProt P60842, sequence (whole entry, looked up): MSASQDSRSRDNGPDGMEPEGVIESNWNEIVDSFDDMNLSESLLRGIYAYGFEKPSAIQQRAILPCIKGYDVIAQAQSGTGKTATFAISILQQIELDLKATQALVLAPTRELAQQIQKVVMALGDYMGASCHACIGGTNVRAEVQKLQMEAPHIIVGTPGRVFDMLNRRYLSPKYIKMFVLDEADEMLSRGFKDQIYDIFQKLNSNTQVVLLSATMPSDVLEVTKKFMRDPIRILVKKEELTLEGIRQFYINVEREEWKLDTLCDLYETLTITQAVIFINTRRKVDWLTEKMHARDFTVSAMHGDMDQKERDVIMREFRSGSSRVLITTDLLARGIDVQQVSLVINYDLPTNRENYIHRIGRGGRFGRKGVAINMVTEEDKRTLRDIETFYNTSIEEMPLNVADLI
# Technique: RNA Bind-n-Seq
# Form: RNA
# Medium: in vitro
# Concentration: 15 pmol
# Setting: 4-mer, random 30-nt RNA, single round
# With: DMSO vehicle, 2 mM AMP-PNP
# Baseline: input library
# Direction: higher = stronger binding
Sequence,4-mer enrichment [fold]
UAUC,0.835
CUAC,0.921
GACA,0.999
GAUC,0.489
AUAU,0.859
CUUC,1.37

# Study 5
# Target: Transcription factor Sp1 (SP1, Homo sapiens, UniProt P08047, residues 1-785, full length assumed)
# UniProt P08047, sequence (whole entry, looked up): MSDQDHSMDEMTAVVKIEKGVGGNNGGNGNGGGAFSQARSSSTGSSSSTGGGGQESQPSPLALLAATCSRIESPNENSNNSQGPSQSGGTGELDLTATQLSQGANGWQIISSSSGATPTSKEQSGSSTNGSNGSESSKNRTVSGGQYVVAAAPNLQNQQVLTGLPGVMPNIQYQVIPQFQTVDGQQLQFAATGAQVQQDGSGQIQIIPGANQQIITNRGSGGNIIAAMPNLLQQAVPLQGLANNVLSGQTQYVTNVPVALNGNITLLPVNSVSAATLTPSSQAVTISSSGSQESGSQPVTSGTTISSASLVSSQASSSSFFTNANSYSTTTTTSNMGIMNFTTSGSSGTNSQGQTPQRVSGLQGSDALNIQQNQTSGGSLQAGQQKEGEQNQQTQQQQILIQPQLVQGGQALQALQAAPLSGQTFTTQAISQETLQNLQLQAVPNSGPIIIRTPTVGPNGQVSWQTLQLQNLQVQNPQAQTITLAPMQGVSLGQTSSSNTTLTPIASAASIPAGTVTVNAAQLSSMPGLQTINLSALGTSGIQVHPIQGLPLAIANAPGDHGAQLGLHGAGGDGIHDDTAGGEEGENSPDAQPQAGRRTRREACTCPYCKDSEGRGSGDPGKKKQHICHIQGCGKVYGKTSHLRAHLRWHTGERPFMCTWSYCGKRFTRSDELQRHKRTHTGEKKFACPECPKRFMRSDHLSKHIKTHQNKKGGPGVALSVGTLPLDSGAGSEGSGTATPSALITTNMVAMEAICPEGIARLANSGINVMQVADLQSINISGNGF
# Technique: protein-binding microarray
# Form: double-stranded DNA, one strand shown
# Medium: in vitro
# Concentration: not given
# Setting: k-mer, scored over probes, only values ≥0.25
# Direction: higher = stronger binding
Sequence,E-score
ATCGCCCC,0.276
ACGCCTCC,0.356
TATGCTCA,0.264

# Study 6
# Target: Sal-like protein 4, full length isoform B (SALL4, Homo sapiens, UniProt Q9UJQ4-2, residues 1-616)
# Technique: universal PBM
# Form: double-stranded DNA, one strand shown
# Medium: in vitro
# Concentration: not given
# Setting: 8-mer, flanks averaged, mean of replicates
# Direction: higher = stronger binding
# Target sequence (chain): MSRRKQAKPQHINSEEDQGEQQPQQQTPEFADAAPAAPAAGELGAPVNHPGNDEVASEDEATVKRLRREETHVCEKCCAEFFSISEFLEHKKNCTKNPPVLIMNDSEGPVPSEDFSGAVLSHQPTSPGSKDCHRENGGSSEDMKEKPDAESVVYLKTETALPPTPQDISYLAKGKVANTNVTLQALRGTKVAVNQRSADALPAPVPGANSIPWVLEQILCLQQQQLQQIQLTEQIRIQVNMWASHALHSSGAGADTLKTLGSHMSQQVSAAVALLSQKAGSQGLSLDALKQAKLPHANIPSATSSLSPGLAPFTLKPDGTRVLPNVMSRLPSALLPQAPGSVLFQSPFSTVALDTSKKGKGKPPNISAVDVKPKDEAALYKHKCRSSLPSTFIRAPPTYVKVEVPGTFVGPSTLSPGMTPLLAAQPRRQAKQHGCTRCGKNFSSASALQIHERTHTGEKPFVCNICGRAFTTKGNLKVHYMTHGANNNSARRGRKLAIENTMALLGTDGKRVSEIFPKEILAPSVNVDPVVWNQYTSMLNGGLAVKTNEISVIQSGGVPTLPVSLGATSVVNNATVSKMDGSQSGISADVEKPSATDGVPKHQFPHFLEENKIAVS
Sequence,E-score
ACATTAGT,0.104
ACTGTGTC,0.00686
ATGGTCTC,-0.0196
AACAACAA,0.12
CTGGCAGC,-0.275
GGGAAACC,-0.185
CTCTTTAC,0.0299
CGCGTCCC,-0.4

# Study 7
# Target: Replicase polyprotein 1ab, main protease (rep, Severe acute respiratory syndrome coronavirus 2, UniProt P0DTD1)
# Observed: enzyme activity
# Mode: inhibitor
# Concentration: 20 µM
# Setting: hit confirmation
Compound,inhibition [%]
N[C@@H](Cc1cc(-c2ccc(Cl)cc2Cl)cc(CP(=O)(O)O)c1O)C(=O)O,25.4
NC(Cc1ccc(O)c(O)c1)C(=O)O (centres unmarked),56.6
COC(=O)/C=C/c1cc(O)ccc1O,52.7

# For quick reference, copied from above (study 1):
Sequence,bound/input enrichment [ratio]
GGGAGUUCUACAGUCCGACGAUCGCCACCAGAUCCCAGAAACAUGACCCUUGCAGCCUAUAAAGAGAAGAUGAAGGAACUCCCGCUGGUGUCCUUGUUCUGCUCCUGCUUCCUGGCCGAUCCCCUGAAUAAGUCGUCCUACAACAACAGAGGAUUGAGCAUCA,0.317
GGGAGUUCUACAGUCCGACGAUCCCCUCCCCGGGCCACCCACCCCUCCCGCUCCCAGCGGGAGAUCCAGGUUUCUUCUUAUUUCAUAGCAAAUAAGAAAAAUGUUCUACGCACAUUUUGUCCUCAGUAAACGAGGGCCUCUGGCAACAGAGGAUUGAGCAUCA,0.349
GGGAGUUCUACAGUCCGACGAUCAAAUUUCCCCUCCUGAGACCUCCUCCGAAGUUGGAGUCUCUUACAGAUGGUUCAUCUCCUGUUAGCGUUUUAGUUUGGACCACCCAGCCUUGGACAAUUCCCGCCAACCAGGCAAUUUGCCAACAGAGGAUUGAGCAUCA,0.731
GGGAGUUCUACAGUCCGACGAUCUCGGAUGAGGUGCUGGGUCACUUUUCAUAUCCAGAUCCUUCCCAGUGGACAGAUGAAGAACUGGGAAUCCCUCCUGAUGACGAGGACUGACACUGUAAACUCUCUGGACGAGUAGGAGCACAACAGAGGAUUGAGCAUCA,0.586
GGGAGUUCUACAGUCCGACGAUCGAUAGGAAAAGCUUGUUGGAGACCCGCUUGCAUGUCACUGGUAGAGACCUGAGGUGUAAAAUAGCUGAAACUUUCGGAUUUCAAGAAAAUUACAUCAAGAUCGUAAUAAAUAAGAAACAGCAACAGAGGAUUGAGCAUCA,0.633
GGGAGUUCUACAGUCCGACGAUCCUGAAAAACACAGAUAUCAAAGUUGUUGACUUUGGAAGUGCAACGUAUGAUGAUGAACAUCACAGUACUUUGGUGUCUACCCGGCACUACAGAGCUCCAGAGGUCAUUUUGGCUCUAGGUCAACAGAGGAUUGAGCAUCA,0.317
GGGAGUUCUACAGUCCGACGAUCAAAGUGAUGACUAUGUUUGUACAGCGACAGGUAUUUUCGGAGAGCAAAGAUGAGAUUGCUUUAGUCCUCUAUGGCACAGAUGGCACUGAUAAUGCCCUUGCUGGCAAGGACCAGUAUCAGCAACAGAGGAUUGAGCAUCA,0.267
